# Measurements collected from several papers.
# Each line is one published result; not all experiments were run side by side.
# RIPK2: Receptor-interacting serine/threonine-protein kinase 2 (RIPK2, Homo sapiens, UniProt O43353)
# Chain of UniProt O43353 (whole entry, looked up): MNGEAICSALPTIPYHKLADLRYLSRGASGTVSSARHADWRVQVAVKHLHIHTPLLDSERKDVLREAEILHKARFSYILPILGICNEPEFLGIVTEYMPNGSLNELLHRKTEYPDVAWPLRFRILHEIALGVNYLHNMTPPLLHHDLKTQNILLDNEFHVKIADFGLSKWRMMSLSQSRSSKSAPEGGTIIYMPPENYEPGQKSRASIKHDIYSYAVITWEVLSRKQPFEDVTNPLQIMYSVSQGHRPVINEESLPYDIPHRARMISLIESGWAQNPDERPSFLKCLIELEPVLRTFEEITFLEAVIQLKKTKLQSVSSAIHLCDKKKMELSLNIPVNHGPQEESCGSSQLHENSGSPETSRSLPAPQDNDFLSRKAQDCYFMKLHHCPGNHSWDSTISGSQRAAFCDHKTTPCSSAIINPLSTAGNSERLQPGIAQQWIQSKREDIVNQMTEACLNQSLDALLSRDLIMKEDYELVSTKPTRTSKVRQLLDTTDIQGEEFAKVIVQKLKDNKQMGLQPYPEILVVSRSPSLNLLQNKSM
# Chain of UniProt P22310 (whole entry, looked up): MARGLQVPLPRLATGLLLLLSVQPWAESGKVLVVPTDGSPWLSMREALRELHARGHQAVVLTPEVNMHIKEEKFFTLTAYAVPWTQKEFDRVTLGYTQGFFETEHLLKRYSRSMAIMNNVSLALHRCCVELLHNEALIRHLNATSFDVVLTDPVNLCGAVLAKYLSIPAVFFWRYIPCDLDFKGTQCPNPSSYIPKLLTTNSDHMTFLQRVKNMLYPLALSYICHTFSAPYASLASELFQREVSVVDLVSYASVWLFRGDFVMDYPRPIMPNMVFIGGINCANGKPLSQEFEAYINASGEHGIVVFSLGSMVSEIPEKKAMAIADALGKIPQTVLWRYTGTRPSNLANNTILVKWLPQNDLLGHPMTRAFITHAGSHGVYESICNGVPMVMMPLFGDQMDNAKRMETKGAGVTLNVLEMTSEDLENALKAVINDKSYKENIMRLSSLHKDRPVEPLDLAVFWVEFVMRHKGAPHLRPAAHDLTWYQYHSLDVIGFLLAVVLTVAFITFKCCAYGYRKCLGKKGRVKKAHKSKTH
# Chain of UniProt P54764 (whole entry, looked up): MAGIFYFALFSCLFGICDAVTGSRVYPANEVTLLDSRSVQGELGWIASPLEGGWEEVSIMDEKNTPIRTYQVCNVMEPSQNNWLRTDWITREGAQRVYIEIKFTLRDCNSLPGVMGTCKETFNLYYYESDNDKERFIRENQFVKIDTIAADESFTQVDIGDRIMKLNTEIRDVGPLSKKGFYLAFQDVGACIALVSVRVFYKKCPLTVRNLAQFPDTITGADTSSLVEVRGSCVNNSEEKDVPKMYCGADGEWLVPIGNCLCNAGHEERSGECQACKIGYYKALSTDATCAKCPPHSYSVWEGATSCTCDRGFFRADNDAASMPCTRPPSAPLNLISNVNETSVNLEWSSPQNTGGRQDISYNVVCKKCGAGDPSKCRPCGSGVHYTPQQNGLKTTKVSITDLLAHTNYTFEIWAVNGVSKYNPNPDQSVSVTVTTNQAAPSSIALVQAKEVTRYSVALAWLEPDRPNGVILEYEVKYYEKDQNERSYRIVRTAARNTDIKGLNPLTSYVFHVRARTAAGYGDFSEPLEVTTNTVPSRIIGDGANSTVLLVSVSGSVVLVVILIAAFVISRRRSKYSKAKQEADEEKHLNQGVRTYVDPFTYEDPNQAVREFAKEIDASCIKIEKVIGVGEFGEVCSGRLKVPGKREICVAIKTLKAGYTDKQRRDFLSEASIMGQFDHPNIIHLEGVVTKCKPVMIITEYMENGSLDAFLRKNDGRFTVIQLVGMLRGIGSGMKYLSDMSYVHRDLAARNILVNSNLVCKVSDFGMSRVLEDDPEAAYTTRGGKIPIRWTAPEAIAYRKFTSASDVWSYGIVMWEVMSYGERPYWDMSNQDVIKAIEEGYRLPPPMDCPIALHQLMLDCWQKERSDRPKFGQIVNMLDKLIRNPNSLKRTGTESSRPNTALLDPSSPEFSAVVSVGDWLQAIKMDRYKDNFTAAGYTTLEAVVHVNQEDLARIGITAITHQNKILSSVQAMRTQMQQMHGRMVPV
# Chain of UniProt Q7KZI7 (whole entry, looked up): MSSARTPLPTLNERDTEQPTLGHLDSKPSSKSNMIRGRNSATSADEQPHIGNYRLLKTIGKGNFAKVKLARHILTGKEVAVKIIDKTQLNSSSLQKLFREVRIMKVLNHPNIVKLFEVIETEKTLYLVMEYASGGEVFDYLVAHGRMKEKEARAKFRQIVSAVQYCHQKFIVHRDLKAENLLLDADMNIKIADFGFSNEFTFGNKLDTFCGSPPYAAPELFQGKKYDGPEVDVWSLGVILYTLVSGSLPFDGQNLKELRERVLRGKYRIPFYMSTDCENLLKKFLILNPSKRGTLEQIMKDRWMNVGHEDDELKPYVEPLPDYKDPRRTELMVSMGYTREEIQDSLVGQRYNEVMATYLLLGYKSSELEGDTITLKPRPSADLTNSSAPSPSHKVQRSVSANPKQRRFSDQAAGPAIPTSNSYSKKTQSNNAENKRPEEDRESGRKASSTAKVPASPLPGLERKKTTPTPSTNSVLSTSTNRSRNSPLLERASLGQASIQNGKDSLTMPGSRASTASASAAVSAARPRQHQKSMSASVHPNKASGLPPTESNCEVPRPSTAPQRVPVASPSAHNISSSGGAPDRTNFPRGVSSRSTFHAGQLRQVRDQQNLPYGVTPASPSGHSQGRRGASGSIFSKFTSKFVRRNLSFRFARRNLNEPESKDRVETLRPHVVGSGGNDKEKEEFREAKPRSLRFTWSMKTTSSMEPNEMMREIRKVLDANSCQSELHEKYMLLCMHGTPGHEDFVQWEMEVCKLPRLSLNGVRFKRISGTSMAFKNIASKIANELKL
# Chain of UniProt Q96KB5 (whole entry, looked up): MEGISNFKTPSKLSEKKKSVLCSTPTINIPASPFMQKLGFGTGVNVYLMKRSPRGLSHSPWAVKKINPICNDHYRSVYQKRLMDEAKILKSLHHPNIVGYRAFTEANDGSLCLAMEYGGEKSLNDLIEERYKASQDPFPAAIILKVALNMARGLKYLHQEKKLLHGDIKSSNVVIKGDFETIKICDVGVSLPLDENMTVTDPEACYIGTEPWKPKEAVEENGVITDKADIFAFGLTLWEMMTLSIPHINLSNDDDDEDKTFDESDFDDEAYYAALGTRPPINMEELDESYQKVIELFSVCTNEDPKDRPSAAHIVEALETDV
# Chain of UniProt P45983 (whole entry, looked up): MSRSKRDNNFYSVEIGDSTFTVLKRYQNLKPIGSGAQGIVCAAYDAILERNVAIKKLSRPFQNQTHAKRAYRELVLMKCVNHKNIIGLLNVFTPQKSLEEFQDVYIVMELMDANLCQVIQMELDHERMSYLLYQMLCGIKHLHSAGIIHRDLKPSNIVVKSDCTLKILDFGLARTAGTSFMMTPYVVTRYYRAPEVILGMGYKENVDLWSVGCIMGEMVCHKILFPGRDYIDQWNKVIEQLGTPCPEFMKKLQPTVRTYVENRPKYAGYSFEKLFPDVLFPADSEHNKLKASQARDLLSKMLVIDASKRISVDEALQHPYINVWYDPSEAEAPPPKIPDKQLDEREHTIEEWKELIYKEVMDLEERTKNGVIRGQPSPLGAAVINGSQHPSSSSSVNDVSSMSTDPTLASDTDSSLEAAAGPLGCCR
# Chain of UniProt Q9UIK4 (whole entry, looked up): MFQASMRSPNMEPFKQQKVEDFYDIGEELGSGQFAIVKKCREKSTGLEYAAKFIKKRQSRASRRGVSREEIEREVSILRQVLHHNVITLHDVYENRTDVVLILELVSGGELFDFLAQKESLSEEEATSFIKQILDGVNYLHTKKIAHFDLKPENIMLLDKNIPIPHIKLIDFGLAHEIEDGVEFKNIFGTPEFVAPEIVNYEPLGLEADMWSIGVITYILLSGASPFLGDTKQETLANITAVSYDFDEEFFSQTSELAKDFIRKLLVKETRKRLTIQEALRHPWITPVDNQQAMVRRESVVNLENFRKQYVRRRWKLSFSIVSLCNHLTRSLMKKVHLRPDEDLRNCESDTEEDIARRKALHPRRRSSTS
# Chain of UniProt P48067 (whole entry, looked up): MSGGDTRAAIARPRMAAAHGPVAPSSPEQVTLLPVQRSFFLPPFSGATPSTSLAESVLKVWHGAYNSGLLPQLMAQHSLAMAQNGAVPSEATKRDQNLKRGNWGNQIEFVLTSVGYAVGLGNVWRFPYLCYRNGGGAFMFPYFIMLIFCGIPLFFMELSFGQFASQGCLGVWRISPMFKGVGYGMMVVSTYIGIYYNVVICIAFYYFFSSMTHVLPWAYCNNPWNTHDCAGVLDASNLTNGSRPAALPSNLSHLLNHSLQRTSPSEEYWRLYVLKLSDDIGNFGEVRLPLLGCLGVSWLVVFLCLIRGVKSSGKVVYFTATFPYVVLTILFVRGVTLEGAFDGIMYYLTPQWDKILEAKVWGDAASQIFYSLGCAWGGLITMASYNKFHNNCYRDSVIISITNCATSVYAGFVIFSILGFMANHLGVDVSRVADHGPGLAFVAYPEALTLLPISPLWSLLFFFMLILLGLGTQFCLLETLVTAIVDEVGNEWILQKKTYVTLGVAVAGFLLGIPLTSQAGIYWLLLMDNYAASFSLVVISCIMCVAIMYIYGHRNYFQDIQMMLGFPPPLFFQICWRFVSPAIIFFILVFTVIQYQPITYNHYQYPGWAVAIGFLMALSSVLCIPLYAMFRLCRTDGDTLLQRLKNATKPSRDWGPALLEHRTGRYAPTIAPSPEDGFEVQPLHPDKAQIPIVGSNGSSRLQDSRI
Structure (SMILES),target or system,assay,system,conditions,how to read,measurement,value
Cc1cc(NC(=O)c2cccc(NC(=O)/C=C/CN(C)C)c2)ccc1Nc1nccc(-c2cccnc2)n1,"MAPK8 (Homo sapiens, UniProt P45983)","enzyme activity, inhibitor",,"0.006774 µM, 0 h, unit not given, with: GSH 10 mM pre-incubation",relative to: vehicle,remaining activity,0.856
COc1ccc(CCc2nc3cc(-c4c(C)noc4C)ccc3n2C[C@H](C)N2CCOCC2)cc1Cl,OCI-Ly1,,,"0.5 µM, 120 h",,viability,119%
CNCC(=O)O,"SLC6A9 (Homo sapiens, UniProt P48067)","[3H]glycine uptake, inhibitor",HEK293F,"2000 µM, with: methyl-β-cyclodextrin 3.5 mg/mL",relative to: untreated,remaining activity,60.6%
C=CC(=O)N1CCC[C@@H](n2nc(-c3ccc(Oc4ccccc4)cc3)c3c(N)ncnc32)C1,"EPHA4 (Homo sapiens, UniProt P54764)",,,1 µM,,remaining activity,116%
O=C1NC(=O)/C(=C/c2ccc(-c3ccc(F)cc3O)o2)S1,"MARK2 (Homo sapiens, UniProt Q7KZI7)",enzyme activity,,10 µM,,remaining activity,90%
O=C(O)c1ccc(Nc2ncc3c(n2)-c2ccc(Cl)cc2C(c2c(F)cccc2F)=NC3)cc1,human JNK2α2(h),kinase activity,,1 µM,,remaining activity,141%
CNc1ncc2c(/C=C/C(=O)N3CCC(OC)CC3)nn(Cc3cccc(C(F)(F)F)c3)c2n1,"PBK (Homo sapiens, UniProt Q96KB5)","kinase activity, inhibitor",,1 µM,relative to: untreated control,remaining activity,86%
COc1cc(N2CCN(C)CC2)ccc1Nc1nc(N)n(C(=S)NCc2c(Cl)cccc2Cl)n1,"EGFR (Homo sapiens, UniProt P00533, del752-759)",enzyme activity,,10 µM,relative to: control,remaining activity,4.4%
O=C(O)CCNc1cc(N2CCc3ccccc3CC2)nc(-c2cccnc2)n1,OCI-Ly1,,,"0.5 µM, 120 h",,viability,132%
O=C(NC1CCC1)c1ccc2nc(-c3cccc(NS(=O)(=O)NCCN4CCCCC4)c3)cn2c1,"BMPR1B (Homo sapiens, UniProt O00238)",enzyme activity,,10 µM,,remaining activity,75%
COc1cc(-c2cncc3c2CN(C)Cc2cc(N4CCNCC4)ccc2-3)cc(OC)c1OC,RIPK2,kinase activity,,"1 µM, human enzyme, with: ATP 10 µM",relative to: DMSO control,remaining activity,27%
COc1cc(Nc2ncc3c(n2)-c2ccc(Cl)cc2C(c2c(F)cccc2OC)=NC3)ccc1C(=O)O,FGFR3,kinase activity,,1 µM,,remaining activity,46%
Cc1cc(Nc2cc(N3CCN(C)CC3)nc(Sc3ccc(NC(=O)C4CC4)cc3)n2)[nH]n1,RIPK2,"kinase activity, KinaseProfiler",,"0.03 µM, species human",relative to: control,remaining activity,98%
COc1cc(F)ccc1-c1ncnc(Nc2cccc(C[S@](C)(=N)=O)c2)n1,"DAPK2 (Homo sapiens, UniProt Q9UIK4)",kinase activity,,"10 µM, with: 10 µM ATP",,remaining activity,99%
O=c1cc(-c2ccc(O)c(-c3c(O)cc(O)c4c(=O)cc(-c5ccc(O)cc5)oc34)c2)oc2cc(O)cc(O)c12,"UGT1A4 (Homo sapiens, UniProt P22310)","glucuronidation, inhibitor",human liver microsomes,"100 µM, with: probe substrate 50 µM",relative to: no inhibitor,remaining activity,~10%

# Excerpt of the above:
Structure (SMILES),target or system,assay,system,conditions,how to read,measurement,value
COc1ccc(CCc2nc3cc(-c4c(C)noc4C)ccc3n2C[C@H](C)N2CCOCC2)cc1Cl,OCI-Ly1,,,"0.5 µM, 120 h",,viability,119%
